Experimental data gathered from unrelated publications.
Lines come from different studies, so protocols differ. “And” joins repeats or separate records; there may be more than shown. Numbers after ± are the reported error.
TDP1: Tyrosyl-DNA phosphodiesterase 1 (TDP1, Homo sapiens, UniProt Q9NUW8)
Sequence of UniProt Q9NUW8 (whole entry, looked up): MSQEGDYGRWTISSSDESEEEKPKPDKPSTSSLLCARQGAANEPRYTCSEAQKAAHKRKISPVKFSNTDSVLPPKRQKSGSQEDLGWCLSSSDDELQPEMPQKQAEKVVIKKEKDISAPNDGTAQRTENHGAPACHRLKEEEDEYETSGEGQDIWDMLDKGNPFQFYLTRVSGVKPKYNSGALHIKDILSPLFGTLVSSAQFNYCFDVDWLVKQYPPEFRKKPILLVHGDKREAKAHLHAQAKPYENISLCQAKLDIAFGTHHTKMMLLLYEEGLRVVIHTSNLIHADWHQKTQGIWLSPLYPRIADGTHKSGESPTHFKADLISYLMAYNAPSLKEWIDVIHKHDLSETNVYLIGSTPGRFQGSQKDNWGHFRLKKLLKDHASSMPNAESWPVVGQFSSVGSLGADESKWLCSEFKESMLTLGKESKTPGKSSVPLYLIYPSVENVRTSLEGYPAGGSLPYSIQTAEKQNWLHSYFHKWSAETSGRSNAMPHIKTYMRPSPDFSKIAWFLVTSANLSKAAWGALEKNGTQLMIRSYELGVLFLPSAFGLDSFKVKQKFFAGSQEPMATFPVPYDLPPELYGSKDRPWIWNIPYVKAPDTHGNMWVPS
Sequence of UniProt P0A7A9 (whole entry, looked up): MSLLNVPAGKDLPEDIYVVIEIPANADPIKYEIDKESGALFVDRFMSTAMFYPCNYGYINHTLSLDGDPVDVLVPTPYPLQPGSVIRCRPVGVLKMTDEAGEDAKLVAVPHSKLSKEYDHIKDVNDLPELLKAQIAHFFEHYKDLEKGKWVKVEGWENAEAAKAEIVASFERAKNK

Under “fold change in expression”, Cn1ncc2cc(-c3cncc(Cl)c3N3CCC4(CCNC4=O)CC3)ccc21 is recorded as 2.15 (LS174T; microarray, refers to: SLC6A4; concentration not given, 24 h, gene set SERT; reference: untreated cells).
With CCOC(=O)c1ccc(-n2c(N)c(C#N)c(SC)c(C#N)c2=O)cc1 the viability was 79.4% (HepG2; cell growth or viability, MTT; 6.25 µM, 24 h).
O=C(O)c1ccc(Nc2c(-c3ccc(CON=Cc4cc(-c5ccccc5)no4)cc3)nc3cc(-c4ccccc4)ccn23)cc1 gave an inhibition of 94.5% (TDP1; enzyme activity, inhibitor; 100 µM).
CC(C)c1ccc(N(C)c2ccc3c(c2)OCC[C@H]3CNc2cnccc2C(=O)O)cc1 gave an IC50 of ≥ 10 µM (NIH:OVCAR-3; cell growth, CellTiter-Glo; 7 days).
For N#Cc1ccnc(N2Cc3cnn(Cc4ccc(F)cc4)c3C2)n1, the IC50 was 0.247 µM (HEK293 expressing GluA1 and GluA2; glutamate excitotoxic cell death, CellTox Green; together with: glutamate).
For Cc1ncsc1-c1ccc(C(C)NC(=O)C2CC(O)CN2C(=O)C(NC(=O)CCCCCCCCCCN2CCCC(Nc3ncc(Cl)c(Nc4ccccc4S(=O)(=O)C(C)C)n3)C2)C(C)(C)C)cc1 (centres unmarked), “log2 fold change” read -1.03 (22Rv1; RNA-seq, refers to: SOX13 mRNA; concentration not given; reference: DMSO).
For CC1(C)CC(=O)C2=C(C1)Oc1ccc3ccccc3c1C2c1c[nH]c2ccccc12 (centres unmarked), the lipid content was 1 OD492 and 1.04 OD492 and 1.06 OD492 (3T3-L1 preadipocytes; adipogenesis, Oil Red O staining; IC20, 14 days, single replicate).
CN1CCCNC(=O)c2cccc(c2)C(=O)NCCCN(C)CCCNc2cccc3c2C(=O)c2cccc(c2C3=O)NCCC1 — result for “log2 fold change”: 2.42 (SAS; RNA-seq, refers to: NRSN2-AS1 mRNA; 1 µM, 6 h; reference: untreated cells).
CN(C)c1cc(N)c2cc(Cl)ccc2n1 has an IC50 of 40.3 µM (Inorganic pyrophosphatase (ppa, Escherichia coli, UniProt P0A7A9); inhibitor, counter-screen, coupling enzyme alone).
C=CCn1c(C)c(C=NOCc2ccc3nc(-c4ccccc4)c(Nc4ccc(C(=O)O)cc4)n3c2)c2ccccc21 gave an inhibition of 36.9% (TDP1; enzyme activity, inhibitor; 100 µM, unpurified compound).
With O=C(C[Se]C(=O)c1cc2ccccc2o1)Nc1cccc(C(F)(F)F)c1 the mean TGI was 3.21 µM (NCI60 CNS subpanel; NCI60 five-dose screen).
Under “early apoptotic cells”, CC(C)(C)c1nc(-c2cccc(NS(=O)(=O)c3c(F)cccc3F)c2F)c(-c2ccnc(N)n2)s1.Cc1[nH]c2ccccc2c1CCNCc1ccc(/C=C/C(=O)NO)cc1 is recorded as 39.9 ± 5.2% (A2780/CP; annexin V/PI flow cytometry; concentration not given, 48 h; reference: control subtracted).
CCN(C(=O)c1cc(F)ccc1Oc1nncnc1N1CCC2(C1)CN([C@H](CCCN(C)CCOC)C(C)C)C2)C(C)C has a GI50 of > 10 µM (OVCAR-3; cell growth or viability; 72 h).
O=C(N1CCCC1)n1cc(-c2ccc(-c3ccccc3)cc2)nn1 — result for “SILAC ratio per peptide”: 1 and 0.98 and 1.11 (mouse T cells; N-terminal labelling proteomics, refers to: Tpi1 N-terminal peptide; 0.001 µM, 6 h; reference: DMSO).
CC(=O)Oc1ccccc1C(=O)[Se]CC(=O)Nc1cccc(C(F)(F)F)c1 has a mean TGI of 4.85 µM (NCI60 CNS subpanel; NCI60 five-dose screen).
For COc1cc(N(C)CCN(C)C)c(NC(=O)/C=C/c2ccc3ccccc3c2)cc1Nc1nccc(-c2cn(C)c3ccccc23)n1, the inhibition was 70.1% (NCI-H1975; cell growth or viability, MTT; 0.5 µM, 72 h).
O=C(C[Se]C(=O)c1ccccc1Nc1cccc(C(F)(F)F)c1)Nc1cccc(C(F)(F)F)c1 has a mean TGI of 4.19 µM (NCI60 leukaemia subpanel; NCI60 five-dose screen).
C=CC(=O)Nc1cc(Nc2nccc(-c3c(-c4cccc(C)c4)n(C)c4ccccc34)n2)c(OC)cc1N(C)CCN(C)C gave an inhibition of 42.2% (NCI-H1975; cell growth or viability, MTT; 0.5 µM, 72 h).
With CCN(CC)CC(=O)Nc1cccc(-n2cc(-c3ccc4ccc(-c5cn(-c6cccc(NC(=O)CN(CC)CC)c6)nn5)cc4c3)nn2)c1 the fold regulation was -1.09 (RCC4; PCR angiogenesis array, refers to: MMP9; 5 x IC50, 2 h, normoxia; reference: untreated).
COc1ccccc1-c1ccncc1C(=O)Nc1nnc(OCc2ccc(Cl)cc2)s1 has a colony survival of 60.2% (PEO1 BRCA2-mutant; 0.5 µM, together with: olaparib 0 µM; reference: vehicle control).
The viability of Cc1ccc(-n2cc(CSc3nc4ccccc4n3Cc3cn(-c4ccc(C)cc4)nn3)nn2)cc1 is reported as 41.1% (Caco-2; MTT; 15.6 ppm).
For COc1ccc2c(c1)C(n1nnc3ccccc31)C1=C(CCCC1=O)O2 (centres unmarked), the lipid content was 0.816 OD492 and 0.761 OD492 and 0.741 OD492 (3T3-L1 preadipocytes; adipogenesis, Oil Red O staining; IC20, 14 days, single replicate).
With CO[C@@H]1[C@@H](OC(N)=O)[C@@H](O)[C@H](Oc2ccc3c(O)c(NC(=O)c4ccc(O)c(CC=C(C)C)c4)c(=O)oc3c2C)OC1(C)C the colony count was 8.5 (DLD-1 BRCA2-/-; 50 µM, replicate 1).
For CCc1n(CC(=O)O[C@@H]2C[C@H](C)CC[C@H]2C(C)C)c2ccccc2[n+]1C, the mRNA level was 5.5 (HTS cells (mouse); gene microarray, refers to: SLC7A3; 1 µM, 12 h, unit not given; reference: untreated).
Under “relative ROS fluorescence”, CC1(C)CC[C@@]2(CO)C(=C3C=C[C@@H]4[C@@]5(C)CC[C@H](O)[C@@](C)(CO)[C@@H]5CC[C@@]4(C)[C@]3(C)C[C@@H]2O)C1 is recorded as 1.04 and 0.527 and 1.54 (HepG2, control siRNA; flow cytometry; concentration not given, high dose; reference: control cells).
COc1cc(N(C)CCN(C)C)c(NC(=O)/C=C/c2cccc(C(F)(F)F)c2)cc1Nc1nccc(-c2cn(C)c3ccccc23)n1 gave an inhibition of 69.8% (NCI-H1975; cell growth or viability, MTT; 0.5 µM, 72 h).
For C=C(NC(=O)c1csc(-c2cccnc2)n1)C(=O)NC(=C)C(=O)OC, the EC50 was 5.1 µM (H-MESO-1; cell viability, crystal violet; 24 h exposure, 48 h total).
O=C(C[Se]C(=O)c1ccccc1Nc1ccccc1)Nc1cccc(C(F)(F)F)c1 — result for “mean growth percent”: -77.2% (NCI60 melanoma subpanel; cell growth; 10 µM, 48 h, one-dose).
CCCCc1ccc(/C=C/C(=O)Nc2cc(Nc3nccc(-c4cn(C)c5ccccc45)n3)c(OC)cc2N(C)CCN(C)C)cc1 gave an inhibition of 60.2% (NCI-H1975; cell growth or viability, MTT; 0.5 µM, 72 h).
For COC(=O)c1cc(NC2=NC(=O)C(=Cc3ccc(N(C)C)cc3)S2)ccc1OC(C)=O, the metabolite level was 0.32 fold change (MCF7; GC-MS, refers to: L-5-Oxoproline; 1 µM; reference: DMSO).
CCCC(CCC)C(=O)OCc1cn(-c2cc3ccccc3oc2=O)nn1 gave a growth percentage of 90.2% (HOP-92; NCI60 single-dose screen; 10 µM).
With O=C(C[Se]C(=O)c1ccc2ccccc2n1)Nc1cccc(C(F)(F)F)c1 the mean TGI was 4.57 µM (NCI60 leukaemia subpanel; NCI60 five-dose screen).
The IC50 of CNS(=O)(=O)Nc1nccc(Cc2c(C)c3ccc(Oc4ncccc4F)cc3oc2=O)c1F is reported as 0.00707 µM (WiDr; cell viability; 7 days).
The mean TGI of O=C(C[Se]C(=O)c1cc2ccccc2s1)Nc1cccc(C(F)(F)F)c1 is reported as 3.27 µM (NCI60 CNS subpanel; NCI60 five-dose screen).
Cc1cc(Cl)cc(-c2ccnc3cc(CN4C(=O)C5C(C4=O)C5(C)C)sc23)c1C[C@@H]1CNCCO1 (some centres unmarked) — result for “early apoptotic cells (annexin V+/PI-)”: 21.8% and 17.8% and 14% (CHP-212 parental (wild-type USP7); annexin V-PI flow cytometry; 0.3 µM, 48 h).

A few entries again:
The mean TGI of O=C(C[Se]C(=O)c1cc2ccccc2s1)Nc1cccc(C(F)(F)F)c1 is reported as 3.27 µM (NCI60 CNS subpanel; NCI60 five-dose screen).
Cc1cc(Cl)cc(-c2ccnc3cc(CN4C(=O)C5C(C4=O)C5(C)C)sc23)c1C[C@@H]1CNCCO1 (some centres unmarked) — result for “early apoptotic cells (annexin V+/PI-)”: 21.8% and 17.8% and 14% (CHP-212 parental (wild-type USP7); annexin V-PI flow cytometry; 0.3 µM, 48 h).
CC(C)c1ccc(N(C)c2ccc3c(c2)OCC[C@H]3CNc2cnccc2C(=O)O)cc1 gave an IC50 of ≥ 10 µM (NIH:OVCAR-3; cell growth, CellTiter-Glo; 7 days).
